# Assay results collected from several papers.
# Protocols differ between the studies behind these lines. ± marks the error that the study gave.
# Cell line: Vero
SMILES,observed,method,medium,time,CC50
O=c1[nH]c(=O)n([C@@H]2O[C@H](COCc3ccccc3)[C@@H](OCc3ccccc3)[C@H](OCc3ccccc3)[C@H]2I)cc1Cl,,MTT,DMEM with 10% FBS,72 h,> 50 µM
Cc1cc(-n2c(=O)ccc3cnc4[nH]ccc4c32)ccc1F,cell growth or viability,resazurin,,,> 60 µM
C[C@@H]1O[C@@H](n2ccc(=O)[nH]c2=O)[C@H](I)[C@H](OCc2ccccc2)[C@H]1OCc1ccccc1,,MTT,DMEM with 10% FBS,72 h,> 50 µM
Cc1ccccc1S(=O)(=O)N1CCCC2(C1)Nc1cccnc1N=C2NC1CCCC1 (centres unmarked),,,,72 (unit not given),45 µM
CC(C)(C)[Si](C)(C)OC[C@H]1O[C@@H](n2cc(C#N)c(=O)[nH]c2=O)[C@H](I)[C@@H](O[Si](C)(C)C(C)(C)C)[C@@H]1O[Si](C)(C)C(C)(C)C,,MTT,DMEM with 10% FBS,72 h,76.3 µM
CC(C)CC(NC(=O)OCc1ccccc1)C(=O)NC(CC1CCNC1=O)C(=O)C(=O)NC1CC1 (centres unmarked),,,,5 (unit not given),> 250 µM
CC(C)(C)[Si](C)(C)OC[C@H]1O[C@@H](n2cc(F)c(=O)[nH]c2=O)[C@H](I)[C@@H](O[Si](C)(C)C(C)(C)C)[C@@H]1O[Si](C)(C)C(C)(C)C,,MTT,DMEM with 10% FBS,72 h,> 25 µM
Cc1ccccc1-n1nnnc1Sc1ccc(C(=O)c2ccccc2)cc1[N+](=O)[O-],,,,24 h,> 25 µM
COc1ccc(-c2cnc3[nH]cc(C#Cc4cccnc4)c3c2)cc1OC,cell growth or viability,resazurin,,,58.9 µM
CCCCCCCCCCCC1CC(=O)NC(CC(N)=O)C(=O)NC(Cc2ccc(O)cc2)C(=O)NC(CC(N)=O)C(=O)NC(CCC(N)=O)C(=O)N2CCCC2C(=O)NC(CC(N)=O)C(=O)NC(CO)C(=O)N1 (centres unmarked),,MTT,,24 h,136 ± 11 µg/mL
NC(=O)c1cc(N2CCOCC2)ccc1OCCc1cccc(F)c1,,,,,> 100 µM
CCC(C)C1OC2(CCC1C)CC1CC(C/C=C(\C)C(OC3CC(OC)C(OC4CC(OC)C(O)C(C)O4)C(C)O3)C(C)/C=C/C=C3\COC4C(O)C(C)=CC(C(=O)O1)C34O)O2 (centres unmarked),cell growth or viability,MTS,,48 h,13.4 µM
CN(C)c1ncnc2c1ncn2[C@@H]1O[C@H](CCl)[C@@H](NC(=O)[C@H](N)CSC(c2ccccc2)c2ccccc2)[C@H]1O,cell growth or viability,MTT,,,39.8 µM
CC(C)C(=O)OC[C@H]1O[C@@](C#N)(n2ccc(N)nc2=O)[C@H](O)[C@@H]1O,cell growth or viability,,,,76.4 µM
Nc1nc(=O)n([C@@H]2O[C@H](COCc3ccccc3)[C@@H](OCc3ccccc3)[C@H](OCc3ccccc3)[C@H]2I)cc1Br,,MTT,DMEM with 10% FBS,72 h,> 50 µM
O=C(CCOCC(COCCC(=O)NC(Cc1c(-c2cc(C(=O)O)cc(C(=O)O)c2)[nH]c2c(-c3cc(C(=O)O)cc(C(=O)O)c3)cccc12)C(=O)O)(COCCC(=O)NC(Cc1c(-c2cc(C(=O)O)cc(C(=O)O)c2)[nH]c2c(-c3cc(C(=O)O)cc(C(=O)O)c3)cccc12)C(=O)O)COCCC(=O)NC(Cc1c(-c2cc(C(=O)O)cc(C(=O)O)c2)[nH]c2c(-c3cc(C(=O)O)cc(C(=O)O)c3)cccc12)C(=O)O)NC(Cc1c(-c2cc(C(=O)O)cc(C(=O)O)c2)[nH]c2c(-c3cc(C(=O)O)cc(C(=O)O)c3)cccc12)C(=O)O (centres unmarked),,,,24 (unit not given),> 50 µM
O=C(N[C@@H](Cc1ccccc1)C(=O)N[C@@H](C[C@@H]1CCNC1=O)C(O)S(=O)(=O)O)OCc1ccccc1 (some centres unmarked),,,,5 (unit not given),184 ± 4.8 µM
